Experimental data from different studies.
Parts stem from different laboratories: compare values within a part only.

Series 1 — technique: protein-binding microarray; form: double-stranded DNA, one strand shown; matrix: in vitro; concentration: 0.8 µM; setting: whole 60-bp probe, no competitor; reading: higher = stronger binding; all sequences stand within: … GTCTTGATTCGCTTGACGCTGCTG
Target: Centromere-binding protein 1, full length, N-terminal tag (CBF1, Saccharomyces cerevisiae, UniProt P17106, residues 1-351)
UniProt P17106, sequence (whole entry, looked up): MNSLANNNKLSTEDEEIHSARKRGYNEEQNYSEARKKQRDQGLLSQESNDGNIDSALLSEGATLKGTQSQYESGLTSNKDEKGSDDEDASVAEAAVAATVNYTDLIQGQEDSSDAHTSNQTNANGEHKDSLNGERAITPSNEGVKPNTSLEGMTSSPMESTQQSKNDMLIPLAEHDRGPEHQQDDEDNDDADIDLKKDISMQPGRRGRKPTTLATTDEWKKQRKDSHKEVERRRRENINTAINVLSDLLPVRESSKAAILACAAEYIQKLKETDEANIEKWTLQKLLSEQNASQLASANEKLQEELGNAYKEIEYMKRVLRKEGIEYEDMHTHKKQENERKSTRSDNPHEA
| Oligonucleotide | fluorescence intensity [a.u.] |
| --- | --- |
| GAACGTTCTTTTTTTCGCGTGCTGTGCAAGAAATAG | 589 |
| GAACTGTGAAGGTGACACGGTAACTTGCAGACTTAG | 555 |
| GAAAGTCTCATTGCCTTCGTGCCAAAAAATCTGTAG | 504 |
| GAATTAATCAAGAATGTCACCAATTTTCTGCGATAG | 494 |
| CTAGTGACTAGTAGTCATGTTACTACTATATTATTC | 764 |
| GAAATCGAGATACATCAGACGAAAACAGAACGATAG | 562 |
| CTATGAGTTTTCACTCACGTACAGCTAGAGAATTTC | 593 |
| GAACTTCTCCGTATTTACACCACCAGAAGCGTTTAG | 531 |

Series 2 — cell line: HEK-293T; read-out: pseudovirus infection; technique: FDA-approved drug library screen; organism: VSV pseudotyped with SARS-CoV-2 spike; concentration: 10 µM; time: 16 h; relative to: vehicle-treated
| Compound | GFP-positive cells [%] |
| --- | --- |
| CCCC(C)(COC(N)=O)COC(=O)NC(C)C (stereo not drawn) | 78 |
| COc1cc2nc(N3CCN(C(=O)c4ccco4)CC3)nc(N)c2cc1OC | 104 |
| C[C@]12CC[C@@H]3c4ccc(O)cc4C[C@@H](CCCCCCCCC[S+]([O-])CCCC(F)(F)C(F)(F)F)[C@H]3[C@@H]1CC[C@@H]2O (stereo partly drawn) | 72.9 |
| Nc1ccn([C@@H]2O[C@H](CO)[C@@H](O)[C@@H]2O)c(=O)n1 | 76.2 |

Series 3 — read-out: enzyme activity; mode: inhibitor; concentration: 20 µM; setting: primary screen
Target: Replicase polyprotein 1ab, main protease (rep, Severe acute respiratory syndrome coronavirus 2, UniProt P0DTD1)
| SMILES | inhibition |
| --- | --- |
| O=[N+]([O-])/C=C/c1ccc2c(c1)OCO2 | 98.8% |
| NC(CO)C(=O)NNCc1ccc(O)c(O)c1O (stereo not drawn) | 99.5% |
| [NH-]c1c[n+](N2CCOCC2)no1 | 73.9% |
| CNC(=O)ON(C(C)=O)C(=O)NC | 96.4% |

Series 4 — read-out: enzyme activity; mode: inhibitor; concentration: 20 µM
Target: Replicase polyprotein 1ab, polymerase (rep, Severe acute respiratory syndrome coronavirus 2, UniProt P0DTD1)
| SMILES | inhibition [%] |
| --- | --- |
| OC[C@H]1O[C@H](O)[C@H](O)[C@@H](O)[C@@H]1O | -0.37 |
| C[S+](CC[C@H](N)C(=O)[O-])C[C@H]1O[C@@H](n2cnc3c(N)ncnc32)[C@H](O)[C@@H]1O (stereo partly drawn) | -2.72 |
| CC[C@H]1OC(=O)[C@@](C)(F)C(=O)[C@H](C)[C@@H](O[C@@H]2O[C@H](C)C[C@H](N(C)C)[C@H]2O)[C@](C)(OC)C[C@@H](C)C(=O)[C@H](C)[C@H]2N(CCCCn3cc(-c4cccc(N)c4)nn3)C(=O)O[C@]12C | -1.75 |
| O=C(NC1(c2ccccc2)CC1)c1c(CN2CCC(N3CCCCC3)CC2)c(-c2cccc(C(F)(F)F)c2)nc2cc(Br)ccc12 | -0.9 |
| CC(C)(C)c1ccc(S(=O)(=O)/C=C/C#N)cc1 | 0.69 |
| CC(C)(C)CC(C)(C)c1ccc(O)c(Cc2ccc(Cl)cc2Cl)c1 | -0.79 |
| CC[C@H]1[C@@H](O)[C@@H]2[C@H](CC[C@]3(C)[C@@H]([C@H](C)CCC(=O)O)CC[C@@H]23)[C@@]2(C)CC[C@@H](O)C[C@@H]12 | 6.06 |
| CCOc1ccc2nc(SCCN3CCOCC3)[nH]c2c1 | -4.8 |
| COc1ccc(/C=C/C(=O)/C=C(O)/C=C/c2ccc(OC)c(OC)c2)cc1OC | 22.9 |
| O=C(Cn1ccnc1[N+](=O)[O-])NCc1ccccc1 | -0.05 |
| CC1(C)CC(=O)c2c(C(F)(F)F)nn(-c3ccc(C(N)=O)c(N[C@H]4CC[C@H](O)CC4)c3)c2C1 | 0.1 |

A few entries again (series 4):
| SMILES | inhibition [%] |
| --- | --- |
| CC[C@H]1[C@@H](O)[C@@H]2[C@H](CC[C@]3(C)[C@@H]([C@H](C)CCC(=O)O)CC[C@@H]23)[C@@]2(C)CC[C@@H](O)C[C@@H]12 | 6.06 |
| CCOc1ccc2nc(SCCN3CCOCC3)[nH]c2c1 | -4.8 |
| COc1ccc(/C=C/C(=O)/C=C(O)/C=C/c2ccc(OC)c(OC)c2)cc1OC | 22.9 |
